Experimental data gathered from unrelated publications.
Protocols differ between the studies behind these lines. Several values in a cell are separate wells, animals, samples, runs or records.
HTR1D: 5-hydroxytryptamine receptor 1D (HTR1D, Homo sapiens, UniProt P28221)
ERBB2: Receptor tyrosine-protein kinase erbB-2 (ERBB2, Homo sapiens, UniProt P04626)

Compound	tested on	assay	test system	setting	how to read	quantity	result
CC1=NN(c2cc(Cl)ccc2Cl)C(=O)C1=NNc1ccc(S(N)(=O)=O)cc1	bovine α-glucosidase	enzyme activity, inhibitor, glucose oxidase		50 µg/mL, added: maltose		inhibition	30.7%
Ic1cccc2cnccc12	rolipram binding site (rat)	radioligand binding, inhibitor		10 µM		inhibition	0%
CC(C)c1noc2ncc(C(=O)c3ccccc3O)cc12	Sodium channel protein type 9 subunit alpha (SCN9A, Homo sapiens, UniProt Q15858)	ion current, inhibitor, whole-cell patch clamp		10 µM		inhibition	7.22% and 18.3% and 14.8% and 9.71% and 6.65%
CC(=O)N[C@H]1C(O)O[C@H](CO)[C@@H](O)[C@@H]1O[C@H](C)C(=O)O (some centres unmarked)		binding, MIDAS equilibrium dialysis LC-MS	A2AR-BRIL thermostabilized	concentration not given	baseline: no-protein control	log2 fold change	-0.573
COc1cc2c(cc1OC)C(=O)C(CC1CCN(Cc3ccccc3)CC1)C2 (centres unmarked)	HTR1D	radioligand binding		concentration not given, added: [3H]5-CT		inhibition	27.3%
CC1=NCCNC(=O)C1=NNc1ccc(S(N)(=O)=O)cc1	bovine α-glucosidase	enzyme activity, inhibitor, glucose oxidase		50 µg/mL, added: maltose		inhibition	40.8%
CC(=O)c1ccc(-c2cccc(NC(=O)CCc3cccc4c3B(O)OC4)c2)cc1	Cleavage and polyadenylation specificity factor subunit 3 (Cpsf3, Mus musculus, UniProt Q9QXK7)	pre-mRNA cleavage	mouse nuclear extract	1000 µM	baseline: DMSO	inhibition	93%
CCc1oc2ccccc2c1C(=O)c1cc(Br)c(O)c(Br)c1	Solute carrier family 22 member 12 (SLC22A12, Homo sapiens, UniProt Q96S37, Y152F)	urate uptake	HEK293T	0.5 µM, 10 min, 37 °C, added: 200 µM [14C]urate		inhibition	89.3% and 90.3% and 90.1% and 84.2% and 84% and 80.3%
CCC(C)C(O)C(=O)O (centres unmarked)		binding, MIDAS equilibrium dialysis LC-MS	A2AR-BRIL thermostabilized	concentration not given	baseline: no-protein control	log2 fold change	-0.559
O=C(NO)c1ccc(CN2CCCCc3ccccc32)c(F)c1	HTR1D	radioligand binding, radioligand displacement		10 µM, mean of replicates		inhibition	-22.1%
CCN1/C(=C/C(C)=O)Sc2ccc(F)cc21	Neurotensin receptor type 1 (NTSR1, Homo sapiens, UniProt P30989)			10 µM		inhibition	0.4%
Cc1nc(Nc2ncc(C(=O)Nc3c(C)cccc3Cl)s2)cc(N2CCN(CCO)CC2)n1	ERBB2	kinase activity, inhibitor, Kinase-Glo MAX		0.1 µM		inhibition	53.6%
NC/C(=C\F)COc1cccc(Cn2c(=S)[nH]c(=O)c3[nH]cnc32)c1	Amine oxidase [copper-containing] 3 (Rattus norvegicus, UniProt O08590)		rat adipose tissue	1 µM		inhibition	102%
CC1=NN(c2ccc(F)cc2)C(=O)C1=NNc1ccc(S(N)(=O)=O)cc1	bovine α-glucosidase	enzyme activity, inhibitor, glucose oxidase		200 µg/mL, added: maltose		inhibition	41.9%
Cc1c(-c2ccccc2)oc2c(C(=O)O)cccc2c1=O	LRRC8A (Homo sapiens, UniProt Q8IWT6)	ion current, inhibitor	HEK293	30 µM, added: hypotonic stimulation		inhibition	~46%
Cc1nn(-c2nc3c(F)cc(F)cc3s2)c(O)c1C(c1ccccc1C(F)(F)F)c1c(C)nn(-c2nc3c(F)cc(F)cc3s2)c1O	Cyclic GMP-AMP synthase (CGAS, Homo sapiens, UniProt Q8N884)	enzyme activity, inhibitor, pyrophosphatase-coupled		200 µM, 1.5 h, added: HT-DNA		inhibition	86.6%
CNc1cccc2cc(C(=O)Nc3ccc(C(=O)O)cc3)c(=O)[nH]c12	IKK	kinase activity, inhibitor		10 µM		inhibition	5.3%
Cc1cc2c(cc1N1C(=O)c3cccc4c(CCCO)ccc(c34)C1=O)n(C)c(=O)n2C (racemic)	Histone acetyltransferase KAT2B (KAT2B, Homo sapiens, UniProt Q92831)	binding, BROMOscan binding		1000 nM		inhibition	71%
CN1CCC(CNc2ccc3ncc(-c4cccc(OC(F)(F)F)c4)n3n2)CC1	Neuronal acetylcholine receptor; alpha4/beta2 (Homo sapiens, UniProt P17787+P43681)	ion channel activity, blocker		10 µM	baseline: control	inhibition	> 50%

Compound	tested on	assay	test system	setting	how to read	quantity	result
CN1CCN(c2cc(-c3ccncc3)c(-c3ccc4ccccc4c3)nn2)CC1	Glucagon-like peptide 2 receptor (GLP2R, Homo sapiens, UniProt O95838)	antagonist, FLIPR		10 µM		inhibition	54.2%
CC[C@@H]1[C@H](F)C(=O)N[C@@H]1COc1nccc2cc(C(N)=O)c(OC)cc12	Cyclin-dependent kinase 10 (CDK10, Homo sapiens, UniProt Q15131)	ATP-site probe binding, ActivX profiling	THP-1 cell lysate	0.01 mM, Lys2 site		inhibition	0.5%
O=C(CN1CCO[C@@H](COc2cccnc2)C1)N1CCc2ccccc21	HTR1D	radioligand binding		concentration not given, added: [3H]5-CT		inhibition	-5.2%
O=C(Nc1cccc2c(=O)cc(-c3nnn[nH]3)oc12)c1ccc(OCCCCc2ccccc2)cc1	Volume-regulated anion channel subunit LRRC8C, part LRRC8A IL1 chimera (LRRC8C, Homo sapiens, UniProt Q8TDW0)	ion current, inhibitor, whole-cell patch clamp	HCT LRRC8-/- cells, transfected	10 µM, low ionic strength swelling, -100 mV		inhibition	35.2% and 56% and 70.7% and 51%
Cc1ncccc1OC[C@@H]1CN(CCN2CCc3ccccc32)CCO1	HTR1D	radioligand binding		concentration not given, added: [3H]5-CT		inhibition	33.2%
CC1=NN(c2cccc([N+](=O)[O-])c2)C(=O)C1=NNc1ccc(S(N)(=O)=O)cc1	bovine α-glucosidase	enzyme activity, inhibitor, glucose oxidase		100 µg/mL, added: maltose		inhibition	47.5%
O=c1c(O)cc([C@H]2Oc3cc(O)cc(O)c3C[C@H]2O)cc2c([C@H]3Oc4cc(O)cc(O)c4C[C@H]3O)cc(O)c(O)c12	alpha-amylase	enzyme activity, inhibitor, DNS method		1 µg/mL, added: soluble starch		inhibition	3.65%
CC1=NN(c2cccc(C)c2)C(=O)C1=NNc1ccc(S(N)(=O)=O)cc1	bovine α-glucosidase	enzyme activity, inhibitor, glucose oxidase		200 µg/mL, added: maltose		inhibition	40.3%
[2H]c1cc(C)c(NC(=O)c2cnc(Nc3cc(N4CCCCC4)nc(C)n3)s2)c(Cl)c1	ERBB2			0.01 µM		inhibition	< 30%
CC1=NOC(=O)C1=NNc1ccc(S(N)(=O)=O)cc1	bovine α-glucosidase	enzyme activity, inhibitor, glucose oxidase		50 µg/mL, added: maltose		inhibition	35.4%
c1ccc(OC[C@@H]2CN(CCN3CCc4ccccc43)CCO2)cc1	HTR1D	radioligand binding		concentration not given, added: [3H]5-CT		inhibition	76.8%
CN(C(=O)n1cnc(-c2ccc[n+]([O-])c2)c1)C1CCCCC1	Gamma-aminobutyric acid type B receptor subunit 1 (Gabbr1, Rattus norvegicus, UniProt Q9Z0U4)			10 µM		inhibition	3.69%
COc1cc(C(=O)NS(=O)(=O)c2ccccc2C)ccc1Cc1cn(C)c2ccc(NC(=O)OC3CCCC3)cc12	Volume-regulated anion channel subunit LRRC8C, part LRRC8A IL1 chimera (LRRC8C, Homo sapiens, UniProt Q8TDW0, Y126F)	ion current, inhibitor, whole-cell patch clamp	HCT LRRC8-/- cells	0.3 µM, +100 mV		inhibition	9.15% and 64.4% and 12.5% and 1.31% and 45.3% and 23.9%
COc1ccc2c(c1)C(=O)N(CCCN1CCN(c3ccccc3OC)CC1)C2	HTR1D	radioligand binding		concentration not given, added: [3H]5-CT		inhibition	76.3%
CCS(=O)(=O)c1nc(S(=O)(=O)c2ccccc2Cl)c(N2CCN(C)C(=O)[C@H]2C)s1	Histamine H3 receptor (HRH3, Homo sapiens, UniProt Q9Y5N1)			10 µM		inhibition	2.43%
CC1=NNC(=S)NC(=O)C1/N=N/c1ccc(S(N)(=O)=O)cc1 (centres unmarked)	bovine α-glucosidase	enzyme activity, inhibitor, glucose oxidase		50 µg/mL, added: maltose		inhibition	30%
COc1cc(-c2cc(C(C)=O)n3ccccc23)cc(OC)c1Cn1ccnc1	Bromodomain-containing protein 7 (BRD7, Homo sapiens, UniProt Q9NPI1)			1 µM		inhibition	90.5%
Cc1ccc(OC[C@H]2CN(CCN3CCc4ccccc43)CCO2)cn1	HTR1D	radioligand binding		concentration not given, added: [3H]5-CT		inhibition	33.8%
CC[C@]12CCCN3CCc4c([nH]c5ccccc45)[C@]31N(Cc1cn(Cc3ccccc3)nn1)C(=O)C2	Orexin receptor type 2 (HCRTR2, Homo sapiens, UniProt O43614)	beta-arrestin recruitment, antagonist, PathHunter chemiluminescence		20 µM, added: agonist at EC80		inhibition	80%

For quick reference, copied from above:
Compound	tested on	assay	test system	setting	how to read	quantity	result
CC[C@]12CCCN3CCc4c([nH]c5ccccc45)[C@]31N(Cc1cn(Cc3ccccc3)nn1)C(=O)C2	Orexin receptor type 2 (HCRTR2, Homo sapiens, UniProt O43614)	beta-arrestin recruitment, antagonist, PathHunter chemiluminescence		20 µM, added: agonist at EC80		inhibition	80%
CCC(C)C(O)C(=O)O (centres unmarked)		binding, MIDAS equilibrium dialysis LC-MS	A2AR-BRIL thermostabilized	concentration not given	baseline: no-protein control	log2 fold change	-0.559
O=C(CN1CCO[C@@H](COc2cccnc2)C1)N1CCc2ccccc21	HTR1D	radioligand binding		concentration not given, added: [3H]5-CT		inhibition	-5.2%
O=C(NO)c1ccc(CN2CCCCc3ccccc32)c(F)c1	HTR1D	radioligand binding, radioligand displacement		10 µM, mean of replicates		inhibition	-22.1%
CNc1cccc2cc(C(=O)Nc3ccc(C(=O)O)cc3)c(=O)[nH]c12	IKK	kinase activity, inhibitor		10 µM		inhibition	5.3%
CC(=O)N[C@H]1C(O)O[C@H](CO)[C@@H](O)[C@@H]1O[C@H](C)C(=O)O (some centres unmarked)		binding, MIDAS equilibrium dialysis LC-MS	A2AR-BRIL thermostabilized	concentration not given	baseline: no-protein control	log2 fold change	-0.573
